Experimental data gathered from unrelated publications.
Numbers after ± are the reported error.
UniProt Q61143, sequence (whole entry, unmodified, looked up): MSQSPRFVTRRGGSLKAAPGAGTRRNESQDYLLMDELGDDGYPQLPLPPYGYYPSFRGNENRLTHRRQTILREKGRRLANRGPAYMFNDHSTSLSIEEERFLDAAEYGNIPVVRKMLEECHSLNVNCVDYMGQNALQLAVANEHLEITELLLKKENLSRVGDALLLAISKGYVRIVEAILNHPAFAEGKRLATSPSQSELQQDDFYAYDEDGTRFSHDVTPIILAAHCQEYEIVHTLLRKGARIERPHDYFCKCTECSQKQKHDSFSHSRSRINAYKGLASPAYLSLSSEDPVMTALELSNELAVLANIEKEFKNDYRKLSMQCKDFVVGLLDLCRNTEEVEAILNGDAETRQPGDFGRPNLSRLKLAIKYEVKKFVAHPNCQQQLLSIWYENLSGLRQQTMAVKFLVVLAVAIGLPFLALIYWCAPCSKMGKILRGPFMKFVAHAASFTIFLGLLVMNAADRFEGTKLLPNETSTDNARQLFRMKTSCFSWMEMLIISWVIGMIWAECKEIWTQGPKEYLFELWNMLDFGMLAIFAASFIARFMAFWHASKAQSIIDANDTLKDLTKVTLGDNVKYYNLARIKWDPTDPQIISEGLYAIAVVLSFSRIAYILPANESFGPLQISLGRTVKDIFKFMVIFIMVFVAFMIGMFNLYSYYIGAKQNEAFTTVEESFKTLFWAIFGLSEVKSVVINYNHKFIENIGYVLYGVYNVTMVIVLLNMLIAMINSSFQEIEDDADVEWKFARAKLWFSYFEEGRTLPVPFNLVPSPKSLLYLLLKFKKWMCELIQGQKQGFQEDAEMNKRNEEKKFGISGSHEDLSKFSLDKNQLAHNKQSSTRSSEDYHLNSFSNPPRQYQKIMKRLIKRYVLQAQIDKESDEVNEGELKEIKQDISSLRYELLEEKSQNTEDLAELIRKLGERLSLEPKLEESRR
UniProt Q93009, sequence (whole entry, unmodified, looked up): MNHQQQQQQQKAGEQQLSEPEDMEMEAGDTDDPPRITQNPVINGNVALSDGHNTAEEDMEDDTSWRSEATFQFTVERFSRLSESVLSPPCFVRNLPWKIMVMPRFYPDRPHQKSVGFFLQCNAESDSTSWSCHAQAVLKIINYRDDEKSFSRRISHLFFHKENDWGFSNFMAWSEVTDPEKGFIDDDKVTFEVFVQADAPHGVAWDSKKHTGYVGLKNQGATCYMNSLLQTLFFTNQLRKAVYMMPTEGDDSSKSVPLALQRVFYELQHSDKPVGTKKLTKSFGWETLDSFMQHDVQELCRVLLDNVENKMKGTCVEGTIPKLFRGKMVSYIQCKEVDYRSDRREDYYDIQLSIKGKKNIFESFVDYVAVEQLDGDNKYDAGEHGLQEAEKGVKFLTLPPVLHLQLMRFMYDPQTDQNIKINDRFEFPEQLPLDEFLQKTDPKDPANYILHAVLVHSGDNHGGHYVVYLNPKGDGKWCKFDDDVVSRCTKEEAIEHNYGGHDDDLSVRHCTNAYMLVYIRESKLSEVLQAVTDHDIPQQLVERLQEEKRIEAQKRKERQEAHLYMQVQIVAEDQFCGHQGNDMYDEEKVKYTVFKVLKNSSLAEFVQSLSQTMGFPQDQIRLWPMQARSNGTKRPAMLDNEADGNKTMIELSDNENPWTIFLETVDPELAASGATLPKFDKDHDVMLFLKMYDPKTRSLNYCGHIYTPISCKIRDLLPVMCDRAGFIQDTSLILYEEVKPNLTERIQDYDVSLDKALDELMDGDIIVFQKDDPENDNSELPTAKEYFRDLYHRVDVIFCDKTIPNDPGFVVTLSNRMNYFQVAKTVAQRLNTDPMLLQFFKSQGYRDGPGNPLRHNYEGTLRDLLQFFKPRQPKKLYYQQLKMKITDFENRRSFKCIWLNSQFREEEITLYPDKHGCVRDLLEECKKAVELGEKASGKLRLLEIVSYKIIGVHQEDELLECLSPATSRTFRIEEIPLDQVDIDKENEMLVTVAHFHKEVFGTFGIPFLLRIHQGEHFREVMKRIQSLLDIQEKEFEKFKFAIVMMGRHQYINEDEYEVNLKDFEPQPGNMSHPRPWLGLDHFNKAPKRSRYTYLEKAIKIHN
UniProt P43220, sequence (whole entry, looked up): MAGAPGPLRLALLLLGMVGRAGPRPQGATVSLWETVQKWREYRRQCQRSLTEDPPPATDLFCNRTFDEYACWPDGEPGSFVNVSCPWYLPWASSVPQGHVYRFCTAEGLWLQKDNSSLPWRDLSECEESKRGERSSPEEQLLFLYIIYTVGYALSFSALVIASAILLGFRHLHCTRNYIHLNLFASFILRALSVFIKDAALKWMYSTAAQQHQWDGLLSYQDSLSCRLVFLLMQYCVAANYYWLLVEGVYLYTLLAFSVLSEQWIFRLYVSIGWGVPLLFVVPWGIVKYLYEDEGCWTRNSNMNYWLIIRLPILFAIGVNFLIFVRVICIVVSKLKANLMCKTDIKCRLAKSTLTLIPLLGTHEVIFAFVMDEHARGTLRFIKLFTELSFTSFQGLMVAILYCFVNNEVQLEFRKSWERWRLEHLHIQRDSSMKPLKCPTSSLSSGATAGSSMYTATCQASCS
UniProt P02754, sequence (whole entry, unmodified, looked up): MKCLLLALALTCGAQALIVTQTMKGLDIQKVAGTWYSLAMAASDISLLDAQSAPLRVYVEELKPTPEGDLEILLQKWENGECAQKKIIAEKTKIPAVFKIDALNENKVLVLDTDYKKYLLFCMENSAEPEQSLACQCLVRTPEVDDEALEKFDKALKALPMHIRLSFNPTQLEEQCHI
UniProt P10275, sequence (whole entry, looked up): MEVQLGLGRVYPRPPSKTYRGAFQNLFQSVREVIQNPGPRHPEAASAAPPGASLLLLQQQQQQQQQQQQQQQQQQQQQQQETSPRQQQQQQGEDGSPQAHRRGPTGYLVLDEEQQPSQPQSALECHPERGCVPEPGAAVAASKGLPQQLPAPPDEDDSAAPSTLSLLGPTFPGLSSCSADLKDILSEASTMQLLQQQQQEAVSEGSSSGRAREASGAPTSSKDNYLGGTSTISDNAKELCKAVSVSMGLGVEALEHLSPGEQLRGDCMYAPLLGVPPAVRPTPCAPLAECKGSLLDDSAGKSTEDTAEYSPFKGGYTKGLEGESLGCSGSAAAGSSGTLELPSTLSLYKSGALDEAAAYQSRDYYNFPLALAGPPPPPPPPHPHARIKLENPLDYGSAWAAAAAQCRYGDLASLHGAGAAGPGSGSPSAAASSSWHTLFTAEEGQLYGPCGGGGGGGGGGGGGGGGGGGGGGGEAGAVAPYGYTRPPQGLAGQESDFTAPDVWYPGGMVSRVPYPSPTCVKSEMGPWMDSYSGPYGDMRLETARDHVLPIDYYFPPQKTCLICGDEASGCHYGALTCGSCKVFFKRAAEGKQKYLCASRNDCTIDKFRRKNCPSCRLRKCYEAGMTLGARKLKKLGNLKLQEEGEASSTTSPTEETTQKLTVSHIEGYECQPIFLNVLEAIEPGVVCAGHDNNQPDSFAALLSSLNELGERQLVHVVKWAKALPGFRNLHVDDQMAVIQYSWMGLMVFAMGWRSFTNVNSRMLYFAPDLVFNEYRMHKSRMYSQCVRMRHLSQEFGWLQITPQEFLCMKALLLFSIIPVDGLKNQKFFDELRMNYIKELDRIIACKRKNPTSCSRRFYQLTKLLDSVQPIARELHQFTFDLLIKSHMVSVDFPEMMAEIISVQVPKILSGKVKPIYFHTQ
UniProt Q9HAW8, sequence (whole entry, looked up): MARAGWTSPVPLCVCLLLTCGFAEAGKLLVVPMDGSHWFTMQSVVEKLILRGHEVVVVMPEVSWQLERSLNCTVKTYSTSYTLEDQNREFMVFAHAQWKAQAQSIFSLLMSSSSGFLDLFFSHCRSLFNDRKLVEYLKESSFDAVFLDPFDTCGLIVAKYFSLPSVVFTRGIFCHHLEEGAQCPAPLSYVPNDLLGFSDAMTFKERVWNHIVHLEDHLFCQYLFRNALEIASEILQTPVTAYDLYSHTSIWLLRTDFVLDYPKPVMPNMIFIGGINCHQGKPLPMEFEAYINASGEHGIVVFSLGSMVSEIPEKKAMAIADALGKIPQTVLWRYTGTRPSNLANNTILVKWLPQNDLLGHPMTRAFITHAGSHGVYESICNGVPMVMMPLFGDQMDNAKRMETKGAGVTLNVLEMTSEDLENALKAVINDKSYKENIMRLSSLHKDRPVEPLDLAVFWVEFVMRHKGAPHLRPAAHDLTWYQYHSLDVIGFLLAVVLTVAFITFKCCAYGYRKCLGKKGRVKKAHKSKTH
UniProt P17931, sequence (whole entry, unmodified, looked up): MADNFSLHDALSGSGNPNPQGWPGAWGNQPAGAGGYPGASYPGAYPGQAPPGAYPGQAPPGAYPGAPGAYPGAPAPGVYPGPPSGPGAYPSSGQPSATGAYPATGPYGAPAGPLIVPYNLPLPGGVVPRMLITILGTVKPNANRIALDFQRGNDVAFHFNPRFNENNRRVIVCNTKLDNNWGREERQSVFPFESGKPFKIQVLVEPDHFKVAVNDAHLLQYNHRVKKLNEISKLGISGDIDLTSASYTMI
UniProt Q9HB29, sequence (whole entry, looked up): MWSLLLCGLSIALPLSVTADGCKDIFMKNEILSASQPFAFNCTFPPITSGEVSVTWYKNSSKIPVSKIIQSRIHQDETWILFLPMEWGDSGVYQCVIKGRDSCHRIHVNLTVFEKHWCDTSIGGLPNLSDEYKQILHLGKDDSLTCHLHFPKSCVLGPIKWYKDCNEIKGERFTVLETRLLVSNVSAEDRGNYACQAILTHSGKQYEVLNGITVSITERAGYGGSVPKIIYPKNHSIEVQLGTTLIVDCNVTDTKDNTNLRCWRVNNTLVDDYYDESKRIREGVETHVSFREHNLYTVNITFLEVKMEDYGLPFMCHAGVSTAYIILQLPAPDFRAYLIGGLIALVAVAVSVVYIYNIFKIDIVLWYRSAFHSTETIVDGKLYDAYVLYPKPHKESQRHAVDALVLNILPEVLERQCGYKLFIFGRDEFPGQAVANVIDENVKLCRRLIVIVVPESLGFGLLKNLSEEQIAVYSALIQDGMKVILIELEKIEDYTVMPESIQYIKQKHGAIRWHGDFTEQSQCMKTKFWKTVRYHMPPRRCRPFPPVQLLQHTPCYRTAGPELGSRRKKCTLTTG

| SMILES | target | test | system | conditions | scale | quantity | value |
| --- | --- | --- | --- | --- | --- | --- | --- |
| CC(C)(C)CCN1C[C@@H]2[C@@H](CNC(=O)c3cc(Cl)cc(Cl)c3)[C@@H]2C1.Cl | Voltage-dependent L-type calcium channel subunit alpha-1F (Homo sapiens, UniProt O60840) | calcium current, whole-cell patch clamp | HEK-293T cells | 50 nM, holding potential -50 mV, with: β2 and α2δ subunits |  | activation slope factor k | 8.45 ± 0.2 mV |
| CCCCCCCCSc1nc2c([nH]1)c(=O)n(C)c(=S)n2C | Androgen receptor (AR, Homo sapiens, UniProt P10275) | reporter gene, antagonist, PSA-luciferase | HeLa-A6 | 10 µM, 24 h, with: 5 nM dihydrotestosterone | relative to: maximal activity | remaining activity | 81% |
| COc1ccc(-c2cc(C(F)(F)F)nc(NCc3ccccc3)n2)cc1OC | GLP1R (Homo sapiens, UniProt P43220) | affinity cooperativity, allosteric modulator | HEK-293T overexpressing GLP1R | with: GLP-1 |  | cooperativity factor alpha | 3 to 5 |
| O=C(c1cc2c(s1)CCCCC2)N1CCC(n2c(=O)[nH]c3ccccc32)CC1 | Trpc6 (Mus musculus, UniProt Q61143, E672D) | ion current, agonist, whole-cell patch clamp |  | E672D mutant | relative to: 3 µM over 1 µM | current ratio | 4.8 ± 1.23 |
| CCc1nc2cc3ccccc3cc2cc1C(=O)N1CCC[C@H]1C(=O)N[C@@H](CCC/C=C\CCC[C@H](NC(=O)[C@@H]1CCCN1C(=O)c1cc2cc3ccccc3cc2nc1CC)C(=O)N[C@@H](CCCCN)C(=O)NCCCN)C(=O)N[C@@H](CCCCN)C(=O)NCCCN | (CUG)10 RNA | SPR |  |  |  | residence time | 193 s |
| N#Cc1cnc2sc(C(=O)O)cc2c1N1CCc2[nH]nc(C(=O)N[C@@H](CC(=O)NCCOCCN3CCOCC3)c3cccc(Br)c3)c2C1 | Interleukin-1 receptor-like 2, D1-D2 domains (IL1RL2, Homo sapiens, UniProt Q9HB29) | SPR |  | IL-36R D1-D2 |  | koff | 0.06 ± 0.0002 s⁻¹ |
| COc1c(F)c(F)c(C(=O)N[C@H]2[C@@H](O)[C@@H](CO)O[C@@H](S[C@@H]3O[C@H](CO)[C@H](O)[C@H](NC(=O)c4c(F)c(F)c(OC)c(F)c4F)[C@H]3OS(=O)(=O)O)[C@@H]2O)c(F)c1F | Galectin-3 (LGALS3, Homo sapiens, UniProt P17931) | ITC |  | Kd fixed from FP |  | ΔH | -11 ± 0.239 kcal/mol |
| CCc1c(-c2ccc3[nH]ncc3c2)cnc(N)c1-c1ccc(O)cc1 | USP7 (Homo sapiens, UniProt Q93009, V517F) | enzyme activity, inhibitor, Ub-AMC |  |  | relative to: V517F over wild type | IC50 fold change | 18 fold |
| COC(=O)C1=Cc2ccccc2S1(=O)=O | CFTR (Homo sapiens, UniProt P13569, del508-508) | inhibitor, cycloheximide chase | BHK | 5 or 10 µM, 24 h, with: bortezomib |  | ubiquitination and degradation | inhibited |
| O=C(O)C1OC(OC2C(C(=O)O)OC(OC3C(C(=O)O)OC(OC4C(C(=O)O)OC(O)C(O)C4O)C(O)C3O)C(O)C2O)C(O)C(O)C1O (stereo not drawn) | Beta-lactoglobulin (LGB, Bos taurus, UniProt P02754, A134V/G80D) | isothermal titration calorimetry |  | concentration not given, pH 2.65, 37 °C, 50 mM KH2PO4 | ligand per protein | binding stoichiometry | 5 |
| O=C(O)[C@H]1O[C@@H](O[C@@H]2c3cc4ccc5cccc6c7ccccc7c(c3C=C[C@H]2O)c4c56)[C@H](O)[C@@H](O)[C@@H]1O | UGT1A10 (Homo sapiens, UniProt Q9HAW8) | glucuronidation, substrate | HEK293 homogenate |  | relative to: UGT1A10 over UGT1A7 and UGT1A8 | catalytic efficiency ratio | 12 to 72 fold |
| O=Cc1c(O)ccc2ccccc12 | HEG1 cytoplasmic tail, human | pulldown | HUVEC lysate | 35 µM |  | PARD3 binding | no effect |

Excerpt of the above:
| SMILES | target | test | system | conditions | scale | quantity | value |
| --- | --- | --- | --- | --- | --- | --- | --- |
| COc1c(F)c(F)c(C(=O)N[C@H]2[C@@H](O)[C@@H](CO)O[C@@H](S[C@@H]3O[C@H](CO)[C@H](O)[C@H](NC(=O)c4c(F)c(F)c(OC)c(F)c4F)[C@H]3OS(=O)(=O)O)[C@@H]2O)c(F)c1F | Galectin-3 (LGALS3, Homo sapiens, UniProt P17931) | ITC |  | Kd fixed from FP |  | ΔH | -11 ± 0.239 kcal/mol |
